Experimental data of several laboratories.
± marks the error that the study gave.
Urease: Urease (Canavalia ensiformis, UniProt P07374)

CSCC[C@H](NC(=O)[C@H](Cc1c[nH]cn1)NC(=O)[C@H](Cc1c[nH]cn1)NC(=O)[C@H](CCCCN)NC(=O)[C@@H](N)C(C)C)C(=O)N[C@@H](Cc1ccc(O)cc1)C(=O)N[C@H](C(=O)N[C@@H](CO)C(=O)NCC(=O)N[C@@H](CCCCN)C(=O)O)C(C)C — IC50 (DNA dC->dU-editing enzyme APOBEC-3G (APOBEC3G, Homo sapiens, UniProt Q9HC16); deamination activity, inhibitor, PCR/StuI restriction; pH 7.4, 37 °C, together with: ssDNA substrate 1 fmol/µL): > 100 µM
CC(=O)CCC1C(=O)NC(C(C)C)C(=O)NC(Cc2cc(O)cc(F)c2)C(=O)N2CCCC(N2)C(=O)OC(C(C)=CC=CC(=O)N2CCCCO2)CC=CC=CC(O)C(C)C1O (centres unmarked) — IC50 (Bile salt export pump (ABCB11, Homo sapiens, UniProt O95342); efflux transport, inhibitor; membrane vesicles; together with: taurocholate 2 µM): 12.3 µM
CC1(C)C(/C=C/C2=C(Oc3ccc(S(=O)(=O)O)cc3)C(=C/C=C3/N(CCCCS(=O)(=O)O)c4ccc(S(=O)(=O)O)cc4C3(C)C)/CCC2)=[N+](CCCCCC(=O)NC(CC(=O)NCCCCNC(=O)CCCCCCC(=O)NCCCC[C@H](NC(=O)N[C@@H](CCC(=O)O)C(=O)O)C(=O)O)CC(=O)NCCCC[C@@H]2NC(=O)[C@@H](Cc3ccccc3)NC(=O)[C@H](CC(=O)O)NC(=O)CNC(=O)[C@H](CCCNC(=N)N)NC2=O)c2ccc(S(=O)(=O)[O-])cc21 (some centres unmarked) — IC50 (Integrin alpha-V/beta-3 (Homo sapiens, UniProt P05106+P06756); ligand displacement, FP): 0.09 µM
C[C@H](CCC(=O)N[C@H](CC(c1c[nH]c2ccc(Cl)cc12)c1c[nH]c2ccc(Cl)cc12)C(=O)O)[C@H]1CC[C@H]2[C@@H]3CC[C@@H]4C[C@H](O)CC[C@]4(C)[C@H]3CC[C@]12C — IC50 (Beta-galactoside alpha-2,6-sialyltransferase 1 (ST6GAL1, Homo sapiens, UniProt P15907); enzyme activity, UPLC): 6.6 ± 0.2 µM
C/C=C1/CN2CCc3c([nH]c4ccccc34)[C@@H]2C[C@@H]1/C(=C\OC)C(=O)OC — IC50 (5-hydroxytryptamine receptor 2C (HTR2C, Homo sapiens, UniProt P28335); ligand displacement, radioligand; cell membranes): 1.48 µM
CC(=O)N[C@@H](C)C(=O)N[C@@H](C)C(=O)N1CCC[C@H]1C(=O)N1CCC[C@H]1C(=O)N[C@@H](CCCCN)C(=O)N[C@@H](CCCCN)C(=O)N1CCC[C@H]1C(=O)N1CCC[C@H]1C(=O)N[C@@H](CCCNC(=N)N)C(=O)N1CCC[C@H]1C(=O)NCC(=O)N[C@@H](C)C(=O)N1CCC[C@H]1C(=O)NCC(N)=O — IC50 (Enhancer of filamentation 1 (NEDD9, Homo sapiens, UniProt Q14511); binding, inhibitor, fluorescence polarization competition; together with: FITC-labeled peptide): ~1 µM
Nc1nc2c(c(=O)[nH]1)[n+](Cc1ccc(S(=O)(=O)F)cc1)cn2[C@@H]1O[C@H](COP(=O)(O)O)[C@@H](O)[C@H]1O — IC50 (7-methylguanosine phosphate-specific 5'-nucleotidase (NT5C3B, Homo sapiens, UniProt Q969T7); enzyme activity, inhibitor, absorbance; pH 7.5): 16.2 µM
CC(C)[C@H](NC(=O)[C@@H]1CCCN1C(=O)[C@H](CCCCN)NC(=O)[C@@H]1CCCN1C(=O)[C@H](CO)NC(=O)[C@H](C)NC(=O)[C@@H](N)CCC(=O)O)C(=O)O — IC50 (Angiotensin-converting enzyme (ACE, Oryctolagus cuniculus, UniProt P12822); enzyme activity, inhibitor, absorbance; pH 8.3): 87.7 µM
N[C@H](C(=O)N1CCCC1)C1CCN(c2nccc3c(-c4ncc(Cl)cc4Cl)cccc23)CC1 — IC50 (Protein-arginine deiminase type-2 (PADI2, Homo sapiens, UniProt Q9Y2J8); enzyme activity, GDH-coupled; together with: Ca2+ 0.25 mM): 0.0285 µM
C=Cc1cc(OC)c2c(c1)c(=O)oc1c2cc(OC)c2c(O)ccc([C@@H]3O[C@H](C)[C@H](O)[C@@](C)(O)[C@H]3O)c21 — IC50 (Bifunctional protein GlmU (Staphylococcus aureus, UniProt Q5HIH6, G277S); enzyme activity, inhibitor, absorbance): 26.1 µM
O=C(Nc1ccccc1)c1ccccc1O — IC50 (Histone deacetylase 5 (HDAC5, Homo sapiens, UniProt Q9UQL6); enzyme activity, inhibitor, fluorescence): > 10 µM
CC(C)[C@H](NC(=O)c1ccc(CCc2nc3c(c(=O)[nH]2)CCC3)cc1)C(=O)NC1COC1 — IC50 (Neutrophil collagenase (MMP8, Homo sapiens, UniProt P22894); enzyme activity, inhibitor): > 5 µM
Cc1cc(S(=O)(=O)Nc2ncccn2)c(F)cc1N(C)C1CCN([C@H](C)c2ccccc2)CC1 — IC50 (Sodium channel protein type 1 subunit alpha (SCN1A, Homo sapiens, UniProt P35498); ion current, inhibitor): 294 µM
Cc1cccc(-c2nc(Nc3ccncn3)c3c(C)csc3n2)n1 — IC50 (Cytochrome P450 2D6 (CYP2D6, Homo sapiens, UniProt P10635); inhibitor): 3.5 µM
N=C(N)NCCC[C@H](NC(=O)[C@@H](N)CCCCN)C(=O)N1CCC[C@H]1C(=O)N1CCC[C@H]1C(=O)NCC(=O)N[C@@H](Cc1ccccc1)C(=O)N[C@@H](CO)C(=O)N1CCC[C@H]1C(=O)N[C@@H](Cc1ccccc1)C(=O)N[C@@H](CCCCN)C(=O)O — IC50 (B2 bradykinin receptor (BDKRB2, Homo sapiens, UniProt P30411)): 0.0033 µM
Clc1cc2oc3cc(Cl)c(Cl)cc3c2cc1Cl — IC50 (Aryl hydrocarbon receptor (Ahr, Mus musculus, UniProt P30561); radioligand binding, hydroxyapatite competition binding; in vitro expressed receptor; pH 7.5, together with: [3H]TCDD 2 nM): 0.00162 µM
F[P-](F)(F)(F)(F)F.OCP(CO)CO.OCP(CO)CO.OCP(CO)CO.OCP(CO)CO.[Cu+] — IC50 (PSMB6/PSMB5/PSMB7 (Homo sapiens, UniProt P28072+P28074+Q99436); proteasome C-L activity, inhibitor; LoVo; 24 h): 37 µM
CC[C@@H]1NC(=O)[C@H]([C@H](O)[C@H](C)Cc2nc3ccc(C(=O)OC)cc3[nH]2)N(C)C(=O)[C@H](C(C)C)N(C)C(=O)[C@H](CC(C)C)N(C)C(=O)[C@H](CC(C)C)N(C)C(=O)[C@@H](C)NC(=O)[C@H](C)NC(=O)[C@H](CC(C)C)N(C)C(=O)[C@H](C(C)C)NC(=O)[C@H](CC(C)C)N(C)C(=O)CN(C)C1=O — IC50 (PPIA/Calcineurin subunit B type 1/PPP3CA (Homo sapiens, UniProt P62937+P63098+Q08209); enzyme activity, inhibitor): 6.9 µM
CC(=O)N[C@@H](Cc1ccccc1)C(=O)N[C@@H](CC(C)C)C(=O)N[C@H](C(=O)N[C@@H](CC(=O)O)C(=O)CCl)[C@@H](C)O — IC50 (Caspase-8 (CASP8, Homo sapiens, UniProt Q14790); enzyme activity, inhibitor, fluorescence): 5.22 µM
CC(C)[C@H](NC(=O)N[C@H](C(=O)N[C@H]1/C=C/CCNC(=O)/C=C/[C@H](C(C)C)NC1=O)C(C)C)C(=O)O — IC50 (Proteasome subunit beta type-5 (Psmb5, Mus musculus, UniProt O55234); chymotrypsin-like activity, inhibitor; mouse constitutive proteasome; together with: Suc-LLVY-AMC): 0.059 µM
O=C(CCCCCCC(=O)Nc1ccc(N=Nc2ccccc2)cc1)NO — IC50 (Histone deacetylase 1 (HDAC1, Homo sapiens, UniProt Q13547); enzyme activity, inhibitor; trans isomer): 0.081 ± 0.012 µM
Cc1cc(N2CCNCC2)nc(C#N)n1 — IC50 (Phosphatidylinositol 3,4,5-trisphosphate 5-phosphatase 1, Ptase-C2 domains (INPP5D, Homo sapiens, UniProt Q92835); enzyme activity, inhibitor): 930 µM
O=C1c2ccc(O)c(O)c2C(=O)N1Cc1ccc(F)c(Cl)c1 — IC50 (Gag-Pol polyprotein, integrase (gag-pol, Human immunodeficiency virus 1, UniProt P12497); strand transfer, inhibitor, gel-based; recombinant wild-type integrase): 0.5 ± 0.1 µM
NCP(=O)(O)O — IC50 (Urease; enzyme activity, inhibitor, absorbance; pH 7): 432 µM
CC[C@H](C)[C@H](NC(=O)[C@H](CCCNC(=N)N)NC(=O)[C@H](CCCNC(=N)N)NC(=O)[C@@H]1CCCN1C(=O)[C@@H]1CCCN1C(=O)[C@H](CCCNC(=N)N)NC(=O)[C@@H]1CCCN1C(=O)[C@H](CCCNC(=N)N)NC(=O)[C@@H]1CCCN1C(=O)[C@H](CC(C)C)NC(=O)[C@H](Cc1ccc(O)cc1)NC(=O)[C@@H]1CCCN1C(=O)[C@@H]1CCCN1C(=O)[C@H](CCCCN)NC(=O)[C@H](CC(=O)O)NC(=O)[C@@H](N)C(C)C)C(=O)N[C@@H](Cc1ccc(O)cc1)C(=O)N[C@@H](CC(N)=O)C(=O)N[C@@H](CCCNC(=N)N)C(=O)N1CCN(c2cc3c(cc2F)c(=O)c(C(N)=O)cn3C2CC2)CC1 — IC50 (DNA gyrase (gyrA/gyrB, Escherichia coli, UniProt P0AES4+P0AES6); enzyme activity, inhibitor): 2.5 µM
O=C(CS)NCCCCCNC(=O)c1ccccc1 — IC50 (Polyamine deacetylase HDAC10 (HDAC10, Homo sapiens, UniProt Q969S8); enzyme activity, inhibitor): 8.71 µM
N#Cc1ccc(NC(=O)c2cccnc2)cc1Cl — IC50 (Epidermal growth factor receptor (EGFR, Homo sapiens, UniProt P00533); kinase activity, inhibitor, luminescence; limit value): < 10 µM
Nc1ncnc2c1ncn2[C@@H]1O[C@H](CSCCNC(=O)NCCc2ccccc2)[C@@H](O)[C@H]1O — IC50 (Protein arginine N-methyltransferase 7 (PRMT7, Homo sapiens, UniProt Q9NVM4); enzyme activity, inhibitor, radiometric): 14 µM
Cn1cc(C(=O)Nc2ccccn2)c2ccccc21 — IC50 (Procathepsin L (CTSL, Homo sapiens, UniProt P07711); enzyme activity, inhibitor, FRET): > 100 µM
CC(NC(=O)CO)c1cc(Cl)ccc1Cl (centres unmarked) — IC50 (Urease; enzyme activity, inhibitor, absorbance): 12.5 µM
Nc1ncnc2c1ncn2[C@@H]1O[C@H](CSCCNC(=O)NCC2CCCCC2)[C@@H](O)[C@H]1O — IC50 (RNA demethylase ALKBH5 (Homo sapiens, UniProt Q6P6C2); RNA demethylase activity, inhibitor): > 50 µM
COC(=O)[C@@]1(C)C=C(C(=O)Nc2cccc(C(=O)Nc3ccc(Nc4nccc(-c5cccnc5)n4)cc3)c2)C(=O)CC1 — IC50 (Mitogen-activated protein kinase 8 (MAPK8, Homo sapiens, UniProt P45983); kinase activity, inhibitor; together with: GSH 10 mM): 0.017 ± 0.005 µM
C[C@@H]1O[C@@H](Oc2c(-c3ccc(O)c(O)c3)oc3cc(O)cc(O)c3c2=O)[C@H](O)[C@H](O)[C@H]1O — IC50 (Neuronal acetylcholine receptor subunit alpha-7 (CHRNA7, Homo sapiens, UniProt P36544); ion current, antagonist, two-electrode voltage clamp; oocytes): 56.4 µM
CCC(CC)OC1C=C(C(=O)OC(C)OC(=O)C(N)C(C)CC)CC(NC(=N)N)C1NC(C)=O (mixture of isomers) — IC50 (Solute carrier family 15 member 1 (SLC15A1, Homo sapiens, UniProt P46059); [3H]Gly-Sar uptake; Caco-2; 30 min, pH 6.0, together with: Gly-Sar 10 µM): 450 ± 180 µM
COc1c(C[C@@H](C)O)c2c3c(C[C@@H](C)O)c(OC)c(=O)c4c(O)cc5c(c6c(cc(O)c(c1=O)c62)OCO5)c43 — IC50 (protein kinase C; enzyme activity, inhibitor; whole enzyme): 12 µM
O=C1C(O)=C(Nc2ccc(Cl)cc2)C(=O)c2ccccc21 — IC50 (Dihydroorotate dehydrogenase (quinone), mitochondrial (DHODH, Homo sapiens, UniProt Q02127); enzyme activity, inhibitor, absorbance): 0.36 µM
CSCC[C@H](NC(=O)[C@H](C)N)C(=O)N[C@@H](CCCNC(=N)N)C(=O)N[C@@H](CCC(N)=O)C(=O)N[C@H](C(=O)N[C@@H](Cc1c[nH]cn1)C(=O)N[C@@H](CC(N)=O)C(=O)N[C@@H](Cc1ccccc1)C(=O)N[C@@H](Cc1ccccc1)C(=O)N[C@@H](Cc1ccccc1)C(=O)N[C@@H](Cc1ccccc1)C(=O)N[C@@H](Cc1ccccc1)C(=O)N[C@@H](Cc1ccccc1)C(=O)N[C@@H](CCCCN)C(=O)N[C@@H](CCCNC(=N)N)C(=O)N[C@@H](CCCNC(=N)N)C(=O)O)[C@@H](C)O — IC50 (histidine kinase ComD (Streptococcus pneumoniae serotype 2, UniProt A0A0H2ZM50); reporter gene, antagonist; Streptococcus pneumoniae, D39 comX::lacZ; 30 min, 37 °C, together with: CSP1 50 nM): > 10 µM
CC(=O)Nc1ccc2ccn(-c3cc(NC4CCC4)n4ncc(C#N)c4n3)c2c1 — IC50 (Casein kinase II subunit alpha' (CSNK2A2, Homo sapiens, UniProt P19784); target engagement in cells, BRET): 0.01 µM
